Published values of several laboratories.
Compare with care: the assays were run in different laboratories. ± marks the error that the study gave. ≈ marks a conversion by molar mass, not a printed value.

The IC50 of `CNS(=O)(=O)Nc1nccc(Cc2c(C)c3ccc(Oc4ncccc4F)cc3oc2=O)c1F` is reported as greater than 1000 nM (SAOS-2; cell viability; 7 days).
For `CCN(CC)CC(=O)Nc1cccc(-n2cc(-c3ccc4ccc(-c5cn(-c6cccc(NC(=O)CN(CC)CC)c6)nn5)cc4c3)nn2)c1`, the fold regulation was 1.02 (RCC4; PCR angiogenesis array, measured: FGFR3; 5 x IC50, 2 h, normoxia; relative to: untreated).
`CN1CCCNC(=O)c2cccc(c2)C(=O)NCCCN(C)CCCNc2cccc3c2C(=O)c2cccc(c2C3=O)NCCC1`: “log2 fold change” -1.3 (SAS; RNA-Seq, measured: GLS mRNA; 1 µM, 6 h; relative to: untreated cells).
For `COc1ccc(C(=O)CCc2cc(C(CCc3ccc(O)cc3OC)c3ccc(O)cc3)c(O)cc2OC)cc1` (racemic), the DHA level was 159000 ± 79600 pg/mL (human blood; 3 µM, with: A23187).
`C[n+]1ccc(/C=N/NC(=O)c2cncc(C(=O)N/N=C/c3cc[n+](C)cc3)n2)cc1` has a ΔTm of 3.4 ± 0.5 °C (myc22 MYC G4-DNA parallel; FRET melting; 1 µM, K1 buffer, DNA 0.2 µM, with: ds26 10 µM).
`Cc1ncsc1-c1ccc(C(C)NC(=O)C2CC(O)CN2C(=O)C(NC(=O)CCCCCCCCCCN2CCCC(Nc3ncc(Cl)c(Nc4ccccc4S(=O)(=O)C(C)C)n3)C2)C(C)(C)C)cc1` (stereo not shown): “log2 fold change” -1.63 (22Rv1; RNA-seq, measured: TRIM56 mRNA; concentration not given; relative to: DMSO).
The MIC50 of `C=C(NC(=O)c1csc(-c2nc3c(cc2O)-c2nc(cs2)C(=O)NC(C(C)O)C(=O)NC(=C(C)OC)c2nc(cs2)C(=O)NC2c4nc(cs4)C(=O)NC(COC(=O)c4c5c6c(cccc6n4O)COC(=O)C(OC4CC(C)(O)C(N(C)C)C(C)O4)C2OC5)c2nc-3cs2)n1)C(N)=O` (stereo not shown) is reported as 0.0312 µg/mL (≈ 0.0217 µM) (Enterococcus faecalis; vancomycin-intermediate, 10 isolates; pH 5.5).
Under “log2 fold change”, `c1ccc(-c2n[nH]cc2-c2ccnc3ccccc23)nc1` is recorded as -0.14 (GCN2 (Candida albicans); kinase binding, MIB/MS competition; Candida albicans lysate; 10 µM; relative to: DMSO).
`Nc1ncc(-c2cc(-c3cnn(CC(F)(F)F)c3)ncc2F)nc1C(=O)NC1CNCC(F)C1` (stereo not shown) gave a remaining binding of 86% (NEK2; KINOMEscan; 1 µM; relative to: DMSO control).
The ΔTm of `C[n+]1cc(/C=N/NC(=O)c2cccc(C(=O)N/N=C/c3cc4ccccc4[n+](C)c3)n2)cc2ccccc21` is reported as 19.1 ± 0.1 °C (myc22 MYC G4-DNA parallel; FRET melting; 1 µM, K1 buffer, DNA 0.2 µM).
`CC(C)c1ccc(N(C)c2ccc3c(c2)OCC[C@H]3CNc2cnccc2C(=O)O)cc1` gave an IC50 of 5.67 nM (WSUDLCL2; cell growth or viability, ATP luminescence; 7 days).
With `CN1CCC[C@]1(C)/C=C/S(=O)(=O)NC(=O)Nc1c2c(cc3c1CCC3)CCC2` the IL-1β inhibition was 99.2% (human, whole blood ex vivo; 400 mg single dose, 24 h, single ascending dose, with: LPS and ATP).
For `C[n+]1cccc2cc(/C=N/NC(=O)c3cc(C(=O)N/N=C/c4ccc5c(ccc[n+]5C)c4)ncn3)ccc21`, the ΔTm was 3.6 ± 0.3 °C (myc22 MYC G4-DNA parallel; FRET melting; 1 µM, K1 buffer, DNA 0.2 µM, with: ds26 10 µM).
Under “log2 fold change”, `COC1CN([C@H]2CC[C@H]([C@@]3(C)Oc4c(Cl)cc(C(=O)NCc5c(SC)cc(C)[nH]c5=O)c(C)c4O3)CC2)C1` is recorded as 1.34 (RNA-seq, measured: STARD10; human, whole blood; dose not given, 24 h; relative to: pretreatment baseline).
The ΔTm of `O=C(N/N=C/c1cc[n+](Cc2ccccc2)c2ccccc12)c1cncc(C(=O)N/N=C/c2cc[n+](Cc3ccccc3)c3ccccc23)n1` is reported as 17.4 ± 0.3 °C (myc22 MYC G4-DNA parallel; FRET melting; 1 µM, K1 buffer, DNA 0.2 µM, with: ds26 10 µM).
`COc1cc(O)ccc1CCC(c1ccc(O)cc1)c1cc2c(c(C)c1O)OC(c1ccc(O)cc1)CC2` (mixture of isomers) gave a DHA level of 124000 ± 26300 pg/mL (human blood; 0.3 µM, with: A23187).
For `C[n+]1cccc2cc(/C=N/NC(=O)c3cccc(C(=O)N/N=C/c4ccc5c(ccc[n+]5C)c4)n3)ccc21`, the ΔTm was 17.9 ± 0.6 °C (myc22 MYC G4-DNA parallel; FRET melting; 1 µM, K1 buffer, DNA 0.2 µM, with: ds26 10 µM).
For `C=CC(=O)N1[C@@H](c2ccc3c(c2)OCO3)c2[nH]c3ccccc3c2C[C@H]1C(=O)N1CCN(C)CC1`, “log2 fold change” read -0.34 (CCNE1 WT-3xFLAG:CDK2 complex; co-IP TMT proteomics, measured: PCM1; HEK-293T; 20 µM, 6 h; relative to: DMSO).
With `C[n+]1cc(/C=N/NC(=O)c2cncc(C(=O)N/N=C/c3cc4ccccc4[n+](C)c3)n2)cc2ccccc21` the ΔTm was 15.9 ± 0.2 °C (myc22 MYC G4-DNA parallel; FRET melting; 1 µM, K1 buffer, DNA 0.2 µM).
`CC(=O)[O-].O.O.O.O.[Mn+2].[O-]c1ccc(Br)cc1C=NCCN1CCOCC1` has an inhibition of 19.6% (superoxide scavenging; 120 µM).
For `CC[n+]1cccc2cc(/C=N/NC(=O)c3ccc4ccc(C(=O)N/N=C/c5ccc6c(ccc[n+]6CC)c5)nc4n3)ccc21`, the ΔTm was 19.5 ± 0.6 °C (myc22 MYC G4-DNA parallel; FRET melting; 1 µM, K1 buffer, DNA 0.2 µM).
`C=CC(=O)Nc1cccc(Cn2ncc3cnc(Nc4cnn(CCOC)c4)nc32)c1`: “percent of control” 26% (FLT4 human; binding, KINOMEscan; 100 nM; lower = stronger binding).

Repeated from above:
`CC(=O)[O-].O.O.O.O.[Mn+2].[O-]c1ccc(Br)cc1C=NCCN1CCOCC1` has an inhibition of 19.6% (superoxide scavenging; 120 µM).
For `CC[n+]1cccc2cc(/C=N/NC(=O)c3ccc4ccc(C(=O)N/N=C/c5ccc6c(ccc[n+]6CC)c5)nc4n3)ccc21`, the ΔTm was 19.5 ± 0.6 °C (myc22 MYC G4-DNA parallel; FRET melting; 1 µM, K1 buffer, DNA 0.2 µM).
`C=CC(=O)Nc1cccc(Cn2ncc3cnc(Nc4cnn(CCOC)c4)nc32)c1`: “percent of control” 26% (FLT4 human; binding, KINOMEscan; 100 nM; lower = stronger binding).
